{"data": "Assay results from different studies", "target": "Delta-type opioid receptor (Oprd1, Rattus norvegicus, UniProt P33533)", "note": "Each line is one published result; not all experiments were run side by side. ± marks the error that the study gave.", "sequence of UniProt P33533 (whole entry, looked up)": "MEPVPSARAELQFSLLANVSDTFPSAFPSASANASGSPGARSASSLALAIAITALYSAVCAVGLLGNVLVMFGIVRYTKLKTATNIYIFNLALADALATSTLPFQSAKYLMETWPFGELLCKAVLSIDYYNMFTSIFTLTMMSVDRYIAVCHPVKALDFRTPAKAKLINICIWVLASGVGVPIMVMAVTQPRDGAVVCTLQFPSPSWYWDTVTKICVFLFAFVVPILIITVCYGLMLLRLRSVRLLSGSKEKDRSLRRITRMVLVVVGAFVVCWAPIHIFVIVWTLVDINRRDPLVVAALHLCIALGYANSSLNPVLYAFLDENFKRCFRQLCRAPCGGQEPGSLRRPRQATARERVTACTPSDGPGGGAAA"}
{"SMILES": "Cc1cc(O)cc(C)c1C[C@H](N)C(=O)N[C@@H](C(=O)NCC(=O)N[C@@H](Cc1ccc2ccccc2c1)C(=O)N[C@@H](CC(C)C)C(=O)N[C@@H](CO)C(N)=O)[C@H](C)O", "test": "ligand displacement, radioligand", "conditions": "pH 7.4, cell membranes", "Ki [nM]": 0.7}
{"SMILES": "Cc1cc(O)cc(C)c1CC(N)C(=O)NC1CCNc2ccc(CN3CCOCC3)cc21 (centres unmarked)", "test": "ligand displacement, radioligand", "conditions": "cell membranes", "Ki [nM]": 140}
{"SMILES": "CC(C)C[C@H](NC(=O)[C@H](Cc1ccc2ccccc2c1)NC(=O)CNC(=O)[C@H](NC(=O)[C@@H](N)Cc1ccc(O)cc1)[C@H](C)O)C(=O)N[C@@H](CO[C@@H]1O[C@H](CO)[C@@H](O)[C@H](O)[C@H]1O)C(N)=O", "test": "ligand displacement, radioligand", "conditions": "pH 7.4, cell membranes", "Ki [nM]": 0.87}
{"SMILES": "CCNC(=O)c1cc(Cc2ccccc2)cc2c1NCCC2NC(=O)C(N)Cc1c(C)cc(O)cc1C (centres unmarked)", "test": "ligand displacement, radioligand", "conditions": "cell membranes", "Ki [nM]": 1.8}
{"SMILES": "CC(C)C[C@H](NC(=O)[C@H](Cc1ccc2ccccc2c1)NC(=O)CNC(=O)[C@H](NC(=O)[C@@H](N)Cc1ccc(O)cc1)[C@H](C)O)C(=O)N[C@@H](CO)C(N)=O", "test": "ligand displacement, radioligand", "conditions": "pH 7.4, cell membranes", "Ki [nM]": 0.47}
{"SMILES": "Cc1cc(O)cc(C)c1CC(N)C(=O)NC1CCNc2c(CN3CCOCC3)cc(Cc3ccccc3)cc21 (centres unmarked)", "test": "ligand displacement, radioligand", "conditions": "cell membranes", "Ki [nM]": 2.3}
{"SMILES": "Cc1cc(O)cc(C)c1C[C@H](N)C(=O)N1Cc2ccccc2C[C@H]1CN[C@@H](Cc1ccccc1)C(=O)N[C@@H](Cc1ccccc1)C(N)=O", "test": "ligand displacement, radioligand", "conditions": "cell membranes", "Ki [nM]": 0.4}
{"SMILES": "Cc1cc(O)cc(C)c1CC(N)C(=O)NC1CCNc2ccc(Cc3cccnc3)cc21 (centres unmarked)", "test": "ligand displacement, radioligand", "conditions": "cell membranes", "Ki [nM]": 17}
{"SMILES": "NCCCC[C@H]1NC(=O)[C@H](Cc2ccc(O)cc2)NC(=O)CNC(=O)[C@H](Cc2ccc(O)cc2)NC(=O)[C@H](CNC(=O)c2ccccc2N)NC1=O", "test": "binding", "Ki [nM]": "1220 ± 278"}
{"SMILES": "Cc1cc(O)cc(C)c1CC(N)C(=O)NC1CCNc2ccc(CN3CCC4CCCCC4C3)cc21 (centres unmarked)", "test": "ligand displacement, radioligand", "conditions": "cell membranes", "Ki [nM]": 4.8}
{"SMILES": "CCCCc1cc(Cc2ccccc2)cc2c1NCCC2NC(=O)C(N)Cc1c(C)cc(O)cc1C (centres unmarked)", "test": "ligand displacement, radioligand", "conditions": "cell membranes", "Ki [nM]": 3.6}
{"note": "For quick reference, copied from above:"}
{"SMILES": "Cc1cc(O)cc(C)c1C[C@H](N)C(=O)N1Cc2ccccc2C[C@H]1CN[C@@H](Cc1ccccc1)C(=O)N[C@@H](Cc1ccccc1)C(N)=O", "test": "ligand displacement, radioligand", "conditions": "cell membranes", "Ki [nM]": 0.4}
